Measured values collected from several papers.
Each numbered part is a random draw from the data of one study; scales do not carry over between parts.
UniProt Q8H174, sequence (whole entry, looked up): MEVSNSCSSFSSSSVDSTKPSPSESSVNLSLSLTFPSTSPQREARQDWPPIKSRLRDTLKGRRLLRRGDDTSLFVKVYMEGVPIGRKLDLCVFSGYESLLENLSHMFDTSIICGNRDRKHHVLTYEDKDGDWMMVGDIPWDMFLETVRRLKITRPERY
UniProt Q9M1R4, sequence (whole entry, looked up): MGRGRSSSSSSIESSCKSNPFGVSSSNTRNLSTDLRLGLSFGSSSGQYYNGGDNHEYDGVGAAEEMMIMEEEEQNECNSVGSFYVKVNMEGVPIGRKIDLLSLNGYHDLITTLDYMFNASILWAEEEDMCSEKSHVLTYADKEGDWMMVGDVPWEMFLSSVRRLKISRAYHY
UniProt P93024, sequence (whole entry, looked up): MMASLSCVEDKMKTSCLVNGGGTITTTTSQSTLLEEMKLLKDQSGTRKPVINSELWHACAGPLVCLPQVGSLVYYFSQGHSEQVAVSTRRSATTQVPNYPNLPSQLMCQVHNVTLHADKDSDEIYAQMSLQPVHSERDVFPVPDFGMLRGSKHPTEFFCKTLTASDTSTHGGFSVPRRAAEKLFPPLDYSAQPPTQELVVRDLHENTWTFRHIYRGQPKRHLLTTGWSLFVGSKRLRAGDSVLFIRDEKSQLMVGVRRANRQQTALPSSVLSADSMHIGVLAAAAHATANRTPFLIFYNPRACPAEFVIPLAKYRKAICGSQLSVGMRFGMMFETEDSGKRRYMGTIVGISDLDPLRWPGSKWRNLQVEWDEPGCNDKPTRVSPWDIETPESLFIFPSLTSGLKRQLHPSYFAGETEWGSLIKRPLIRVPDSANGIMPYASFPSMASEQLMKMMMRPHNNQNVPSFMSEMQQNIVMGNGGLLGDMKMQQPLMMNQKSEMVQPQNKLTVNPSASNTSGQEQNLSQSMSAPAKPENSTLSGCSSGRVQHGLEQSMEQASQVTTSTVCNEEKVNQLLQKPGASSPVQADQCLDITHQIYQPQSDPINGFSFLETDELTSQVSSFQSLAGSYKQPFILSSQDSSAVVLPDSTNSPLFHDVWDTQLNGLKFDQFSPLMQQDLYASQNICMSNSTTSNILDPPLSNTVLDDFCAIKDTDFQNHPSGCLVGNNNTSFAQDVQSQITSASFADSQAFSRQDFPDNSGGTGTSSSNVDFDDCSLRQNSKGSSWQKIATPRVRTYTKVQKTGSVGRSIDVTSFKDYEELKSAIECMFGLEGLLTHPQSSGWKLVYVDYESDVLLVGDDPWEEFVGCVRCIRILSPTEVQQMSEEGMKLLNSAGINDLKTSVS
UniProt Q9ZPY6, sequence (whole entry, looked up): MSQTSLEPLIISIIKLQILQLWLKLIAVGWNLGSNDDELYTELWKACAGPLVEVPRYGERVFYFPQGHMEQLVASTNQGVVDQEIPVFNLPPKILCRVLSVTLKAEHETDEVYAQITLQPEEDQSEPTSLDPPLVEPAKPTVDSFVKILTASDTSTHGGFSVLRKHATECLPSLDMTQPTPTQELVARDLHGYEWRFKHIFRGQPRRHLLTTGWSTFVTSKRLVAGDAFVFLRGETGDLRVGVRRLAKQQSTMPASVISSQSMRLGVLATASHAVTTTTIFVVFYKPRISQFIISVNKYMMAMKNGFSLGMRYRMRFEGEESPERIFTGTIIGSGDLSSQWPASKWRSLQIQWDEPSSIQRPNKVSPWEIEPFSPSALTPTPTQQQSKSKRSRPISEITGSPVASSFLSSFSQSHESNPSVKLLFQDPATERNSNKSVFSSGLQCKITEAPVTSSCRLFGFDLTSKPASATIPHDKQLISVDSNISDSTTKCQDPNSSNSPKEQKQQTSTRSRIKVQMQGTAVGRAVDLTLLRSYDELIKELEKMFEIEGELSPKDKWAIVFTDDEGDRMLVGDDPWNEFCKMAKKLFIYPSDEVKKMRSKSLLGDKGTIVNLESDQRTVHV
UniProt O23661, sequence (whole entry, looked up): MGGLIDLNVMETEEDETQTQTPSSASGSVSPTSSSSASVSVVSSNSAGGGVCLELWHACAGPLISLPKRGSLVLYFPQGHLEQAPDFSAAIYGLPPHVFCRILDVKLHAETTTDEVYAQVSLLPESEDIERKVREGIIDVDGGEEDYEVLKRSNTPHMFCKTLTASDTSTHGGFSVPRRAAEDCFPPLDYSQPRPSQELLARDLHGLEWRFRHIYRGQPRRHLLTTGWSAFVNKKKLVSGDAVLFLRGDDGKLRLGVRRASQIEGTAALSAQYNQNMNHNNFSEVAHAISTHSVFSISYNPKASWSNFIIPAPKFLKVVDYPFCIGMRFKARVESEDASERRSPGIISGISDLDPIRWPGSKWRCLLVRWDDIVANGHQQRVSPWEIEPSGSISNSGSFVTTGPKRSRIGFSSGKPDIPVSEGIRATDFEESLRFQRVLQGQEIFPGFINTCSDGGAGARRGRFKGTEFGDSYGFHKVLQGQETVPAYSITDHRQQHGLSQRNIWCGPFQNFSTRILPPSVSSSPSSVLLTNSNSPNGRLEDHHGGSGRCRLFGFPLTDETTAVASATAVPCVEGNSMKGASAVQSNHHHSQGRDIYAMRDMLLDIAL

Set 1
Sequence: B1 (IAA19)
Technique: two-hybrid
Reading: higher = firmer interaction
B1: IAA19 (Arabidopsis thaliana, UniProt O24409); chain MEKEGLGLEITELRLGLPGRDVAEKMMKKRAFTEMNMTSSGSNSDQCESGVVSSGGDAEKVNDSPAAKSQVVGWPPVCSYRKKNSCKEASTTKVGLGYVKVSMDGVPYLRKMDLGSSQGYDDLAFALDKLFGFRGIGVALKDGDNCEYVTIYEDKDGDWMLAGDVPWGMFLESCKRLRIMKRSDATGFGLQPRGVDE
It gave 0 for positive tests (ARF11 500-622 (Arabidopsis thaliana, UniProt Q9ZPY6); baseline: out of 4 tests).
It gave 0 for positive tests (ETT (Arabidopsis thaliana, UniProt O23661); baseline: out of 4 tests).
The positive tests was 0 (IAA30 (Arabidopsis thaliana, UniProt Q9M1R4); weak activation fusion; baseline: out of 2 tests).
For ARF5 788-902 (Arabidopsis thaliana, UniProt P93024); baseline: out of 4 tests: positive tests read 4.
IAA31 (Arabidopsis thaliana, UniProt Q8H174); baseline: out of 4 tests — positive tests: 4.

Set 2
Target: Centromere-binding protein 1, full length, N-terminal tag (CBF1, Saccharomyces cerevisiae, UniProt P17106, residues 1-351)
UniProt P17106, sequence (whole entry, looked up): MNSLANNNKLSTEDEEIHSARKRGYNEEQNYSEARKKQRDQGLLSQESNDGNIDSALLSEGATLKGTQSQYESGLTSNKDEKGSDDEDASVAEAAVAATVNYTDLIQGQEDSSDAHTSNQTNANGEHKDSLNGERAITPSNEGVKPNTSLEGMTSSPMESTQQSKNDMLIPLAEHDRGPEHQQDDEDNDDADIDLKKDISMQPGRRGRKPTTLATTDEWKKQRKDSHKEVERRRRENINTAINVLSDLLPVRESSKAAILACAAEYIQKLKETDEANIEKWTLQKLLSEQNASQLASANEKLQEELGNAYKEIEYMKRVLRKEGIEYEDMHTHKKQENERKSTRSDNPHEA
Technique: protein-binding microarray
Molecule type: double-stranded DNA, one strand shown
Sample: in vitro
Tested at: 0.8 µM
Notes: whole 60-bp probe, no competitor
Reading: higher = stronger binding
With `GAATTCCAAGTCTCACACGAGGCCTTTGTATTTTAGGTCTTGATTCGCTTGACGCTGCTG` the fluorescence intensity was 494 a.u.
With `GAACGCGTCACGCATCACCCGGCGCAGTATTTCTAGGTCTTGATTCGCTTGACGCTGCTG` the fluorescence intensity was 1240 a.u.
With `CTAGCGTCATAATTTCACGTGTTATAATAGCCATTCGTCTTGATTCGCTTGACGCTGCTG` the fluorescence intensity was 3310 a.u.
With `GAAGTTATTGCAATCAACGTGAGCCTTAACCAATAGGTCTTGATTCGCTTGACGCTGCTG` the fluorescence intensity was 583 a.u.
`GAAGACATGGCGTGAAACGTGTAGGCAAGGAAGTAGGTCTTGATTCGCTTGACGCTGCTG` has a fluorescence intensity of 620 a.u.
`CTATTCTACAGCCCTGATGCAAGTGGAAGTTCTTTCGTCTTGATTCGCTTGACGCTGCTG` gave a fluorescence intensity of 526 a.u.
The fluorescence intensity of `CTACTGAAGATTCGAAACGTGTTTCCAAAACCATTCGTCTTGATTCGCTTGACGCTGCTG` is reported as 604 a.u.
For `CTAGAAGGAACATAACACGTTACTATTTGTCTATTCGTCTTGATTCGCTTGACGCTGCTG`, the fluorescence intensity was 614 a.u.
For `CTAGTTAAAATGAACCATGTGCAAATCAGAAACTTCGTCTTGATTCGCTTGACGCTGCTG`, the fluorescence intensity was 793 a.u.
With `CTACGCGCACGGCGTGACGTGGATCCCTAATGTTTCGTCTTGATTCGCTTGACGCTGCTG` the fluorescence intensity was 898 a.u.
`GAAGAAAGCCGCGGGATCACCACCGTTATTCGTTAGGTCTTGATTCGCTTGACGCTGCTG` gave a fluorescence intensity of 519 a.u.
With `CTATATCATCAGCATCACCCTCACTATCGGTAGTTCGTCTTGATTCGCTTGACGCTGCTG` the fluorescence intensity was 547 a.u.
For `GAAGGTTCTACCTCCCACCTGCAAGGGGTCGTGTAGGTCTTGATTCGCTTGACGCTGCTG`, the fluorescence intensity was 487 a.u.
The fluorescence intensity of `CTAAGTCAGCATCATCATATGAAAATACTTCATTTCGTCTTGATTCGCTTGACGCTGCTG` is reported as 528 a.u.
`GAACAGACTCTCCTGCACGTTCCATACTATGTTTAGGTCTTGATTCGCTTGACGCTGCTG` has a fluorescence intensity of 607 a.u.
The fluorescence intensity of `CCTAACTACTATAGCATCATGACATAGCTTCGTACAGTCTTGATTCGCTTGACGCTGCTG` is reported as 534 a.u.
The fluorescence intensity of `CTATAACGTCACACTCACATGAGTTTTCCTGACTTCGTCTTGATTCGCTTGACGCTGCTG` is reported as 617 a.u.
`CCTAACTACTATATTTTAGTCACATAGCTTCGTACAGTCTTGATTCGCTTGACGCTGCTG` gave a fluorescence intensity of 600 a.u.
`GAATATTGTTTTCACCATGTGAACAAAGCTGTATAGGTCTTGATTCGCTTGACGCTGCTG` has a fluorescence intensity of 716 a.u.

Set 3
Target: RNA binding protein fox-1 homolog 2, RRM domain, GST-SBP tag (RBFOX2, Homo sapiens, UniProt O43251-10, residues 100-194)
Technique: RNA Bind-n-Seq
Molecule type: RNA
Sample: in vitro
Tested at: 365 nM
Notes: natural RNA segment, single round, ends assumed
Baseline: no-protein control
Reading: higher = stronger binding
Residues (chain): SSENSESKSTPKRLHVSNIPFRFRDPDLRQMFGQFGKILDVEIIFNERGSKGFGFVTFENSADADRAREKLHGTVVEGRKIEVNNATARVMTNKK
`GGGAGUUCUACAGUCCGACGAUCUAUAGUGGCUUUAUCCUGACAUAGGAAAGUUCAGCUGCAGGGGAGGAGGAGGAGACAGUCUUCCUCUUUAAGUUACAGAGAGCCGUAAGCUAAAGGACCUGCCUAGGAUUUGGAAUUCUCGGGUGCCAA` — result for “RBNS enrichment (R)”: 0.309.
For `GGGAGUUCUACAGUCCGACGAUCCAACUCAGCACACACUCCUUCAGCCUGAGAUUUUUCAAAUCUUUGGCAACUGAGAUGGGAUGGAUCCAUUUAAUUAGAGAACGGUGAAAUCUUUCUAGUUGGGCUUUUUGUGGAAUUCUCGGGUGCCAA`, “RBNS enrichment (R)” read 0.351.
For `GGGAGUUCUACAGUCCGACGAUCUGGGAGCUCUGCUCAUGACCGCUCACAGGGUACCGAGUCUUUGCCUUUUGUGUGUGCGCAUGCUGCCCUCUUAACUGCUUUUAGUAUUCAGAAAGGUUCCAUUUAUGUUUUGGAAUUCUCGGGUGCCAA`, “RBNS enrichment (R)” read 3.92.
For `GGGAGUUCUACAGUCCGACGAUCUCUUCACUUUCGCUUGGUCCCAGCAGGACCUGAUGGCCACGCGUGCCUUGGCCACAGGAAGCUGCCGAGACUGGCCAUGUGGCUGGGCUAGGCUGUGCCCUCCCUCUCCCUGGAAUUCUCGGGUGCCAA`, “RBNS enrichment (R)” read 0.228.
`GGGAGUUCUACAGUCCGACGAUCACAUCUGUUGUCAGAGCCACUGAGUGCUGUGCUGCUCGACGUGAGGGUGAAAUGAUUGACUUGUGACCUGCCAGGUUGCCCGAUGCCCUGUUGGGUCACCGGCUGGACCUUGGAAUUCUCGGGUGCCAA` — result for “RBNS enrichment (R)”: 0.317.
`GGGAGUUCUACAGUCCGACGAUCCCCUUCCCAGCACAUUGAAUGGGUAAGCAGACAGGCCAUGAUUUAGUUGGCCAGCACUAACUCCACCUCUGUUCUCCUUGAACAGCUUCCCCUCCAGCCCACUGCUUUAGUGGAAUUCUCGGGUGCCAA`: “RBNS enrichment (R)” 0.96.
Under “RBNS enrichment (R)”, `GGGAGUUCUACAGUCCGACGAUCUGAGAGCGCCAAGGGUCUUUGCCAGCAAAGGAGGUUCUGCCUGUAAUUGAGCCUCUCUGAUGAUGGAGAUGAAGUGAAGGUCUGAGGGAGCGGGCCCUGGGGCGAGGCCAUGGAAUUCUCGGGUGCCAA` is recorded as 4.09.
For `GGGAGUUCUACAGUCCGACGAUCUGCCCAGCCCUGAGGGCAGGGAAGGUCAACCCACCUGCCCAUCUGUGCUGAGGCAUGUUCCUGCCUACCAUCCUCCUCCCUCCCCGGCUCUCCUCCCAGCAUCACACCAGUGGAAUUCUCGGGUGCCAA`, “RBNS enrichment (R)” read 0.693.

Set 4
Target: Prothrombin, mature alpha-thrombin (F2, Homo sapiens, UniProt P00734)
Technique: aptamer microarray, sandwich
Molecule type: DNA with 2'F-ANA
Sample: in vitro
Tested at: 200 nM
Notes: whole 15-mer aptamer, many near background
Together with: Cy3 exosite-II aptamer, 400 nM
Reading: higher = stronger binding
Strand: GGTTGGTGTGGTTGG
`2'F-ANA at 1 3 6 9 10 12` — result for “mean fluorescence intensity”: 451 a.u.
`2'F-ANA at 4 5 7 8 10 11 13 15` — result for “mean fluorescence intensity”: 44.9 a.u.
Under “mean fluorescence intensity”, `2'F-ANA at 1 2 5 7 9 10 12 13 14 15` is recorded as 54.5 a.u.
`2'F-ANA at 5 6 7 8 10 11 12 13 15` — result for “mean fluorescence intensity”: 66.6 a.u.
`2'F-ANA at 1 2 6 7 8 14`: “mean fluorescence intensity” 57.2 a.u.
`2'F-ANA at 4 5 7 8 10 13`: “mean fluorescence intensity” 155 a.u.
Under “mean fluorescence intensity”, `2'F-ANA at 4 7 8 10 11 12 15` is recorded as 108 a.u.
`2'F-ANA at 1 3 5 6 7 10 11 12 14` — result for “mean fluorescence intensity”: 48.4 a.u.
For `2'F-ANA at 2 4 5 9 10 13`, “mean fluorescence intensity” read 45.7 a.u.
`2'F-ANA at 3 4 5 7 8 10 11 12 13 14`: “mean fluorescence intensity” 48.3 a.u.
For `2'F-ANA at 1 2 4 6 7 9 10 11 12`, “mean fluorescence intensity” read 55.7 a.u.
`2'F-ANA at 1 4 7 8 11 12`: “mean fluorescence intensity” 266 a.u.
For `2'F-ANA at 4 5 7 8 10 12 14 15`, “mean fluorescence intensity” read 46 a.u.
For `2'F-ANA at 3 4 5 6 10 11 12 13`, “mean fluorescence intensity” read 54.4 a.u.
`2'F-ANA at 1 2 5 6 7 11` — result for “mean fluorescence intensity”: 50.2 a.u.
For `2'F-ANA at 1 2 4 9 10 13 15`, “mean fluorescence intensity” read 44.9 a.u.
Under “mean fluorescence intensity”, `2'F-ANA at 2 4 6 10 11 15` is recorded as 73.9 a.u.
Under “mean fluorescence intensity”, `2'F-ANA at 1 3 5 10 11 12 14 15` is recorded as 44.3 a.u.
For `2'F-ANA at 5 7 8 9`, “mean fluorescence intensity” read 88.3 a.u.
`2'F-ANA at 2 3 5 6 7 10 13 15`: “mean fluorescence intensity” 47.3 a.u.
`2'F-ANA at 1 3 8 9 11 14 15`: “mean fluorescence intensity” 82.3 a.u.
`2'F-ANA at 1 2 3 4 5 8 9 11 12 14` — result for “mean fluorescence intensity”: 49.1 a.u.
